Measured values of several laboratories.
Every numbered part comes from another study and shows a few of its results, in no order. Positions count from the first letter of the parent shown.

Study 1 — technique: protein-binding microarray; molecule type: double-stranded DNA, one strand shown; sample: in vitro; concentration: 250 nM; notes: 60-bp whole probe; together with: salmon DNA 0.4 mg/ml; relative to: random background probes; direction: higher = stronger binding; all sequences stand within: GCCTAGCAC … GTCTTGATTCGCTTGACGCTGCTG
Target: Interferon regulatory factor 5, full length, phosphomimetic (IRF5, Homo sapiens, UniProt Q13568-2, residues 1-514, K96S/S451D/S453D/S456D/S462D)
Strand | log fluorescence [z-score]
GACGGTTTCGGGTAACGGGACGTGCTA | 8
TCAGTTCCCTATTTAAGACTGTGCTAG | 0.517
TCATCTTTACTGCTCCAACTGTGCTAG | 0.364
TCTTTTTATGCTTTCTTTAAGTGCTAG | 1.74
CTTTTTTTTTTTTTCTGATCGTGCTAG | 1.26
TACAGCAGGGAGGGAGGCACGTGCTAG | -0.383
GACAGACTGGGACTGGGGACGTGCTAG | -0.52
TTAGAACTGGGTATCGGTTAGTGCTAG | 4.82
AAGGTTACCCATCTCAAGTAGTGCTAG | -0.0755
GACGGTTTCGGTCTCGGGTCGTGCTAG | 9.52
GACGGTTTCCTTATCGTGACGTGCTAG | 0.873
CTCTCCATGTGTTTAAAAAGGTGCTAG | 0.218
GACGGTATCGGACTGGGGTCGTGCTAG | 1.18
GACGGACTGCTTTTCCTGAAGTGCTAG | -0.264
GACGATCTGAGTCTCGAGACGTGCTAG | -0.263
TTAGGTTTTGACACTGGGTTAGTGCTA | 0.138
GACGGTTTTCTTTTCCTGACGTGCTAG | 0.946
TTAGGTATCGGTATCGGCTAGTGCTAG | 8.07
GACGAACTGAGACTGCAGACGTGCTAG | -0.38
ATTTTTTTGTAATCGAAATCTGTGCTA | 1.67
GCCGGACTGCTACTGCTGACGTGCTAG | -0.727
GACGGTATCGACTATCGAGACGTGCTA | 4.05
TTAGGGTTCGGGACTGGGTTAGTGCTA | -0.285
GGTGCCTCGGGTTCAGGGAGGTGCTAG | -0.785
TCAAGTTTATTTATTTTACTGTGCTAG | 0.746

Study 2 — technique: RNA Bind-n-Seq; molecule type: RNA; sample: in vitro; concentration: 365 nM; relative to: no-protein control; direction: higher = stronger binding
Target: RNA binding protein fox-1 homolog 2, RRM domain, GST-SBP tag (RBFOX2, Homo sapiens, UniProt O43251-10, residues 100-194)
Notes: natural RNA segment, single round, ends assumed
All sequences stand within: GGGAGUUCUACAGUCCGACGAUC … UGGAAUUCUCGGGUGCCAA
Strand | RBNS enrichment (R)
CUCAGGAAGUGUGUGCUUGUGGCUGCAUCUGCCCGUCUCCCUGGCCCACCAUGUGGCUGCAGGCCAAGCUCUUCAUUGCUGACCAUGAAGAGACCUAGUUACCUGCCAAG | 1.96
UCUUGUAAAUUUUUAGAAGACCUCACAGAACUUUACAGUUUAUUUUUCUCGGCCAACACAUUAAAACCAUUCUUGGAUUUCAAGUAGCCAACUUUGCCUUUUAUGUAUUC | 0.361
UUUCAUAAUUGGAUUCAUCAAUCCCGUAGCUACCCAUAUUGCACUGAGCUUGCCAGUGGUGACUGCCAGGAACGUCCUAUGAUCCACUUUGUUGGUUGUUGUUGCAGAAG | 0.698
UGUUUCCUACAGUGGGGGCCUGUGGGGUUGAGUCUUGAGGAAUCCCCUCAAAUGAGAAGGCCUUGGGAGAAGGCCUCAUCUCUGGCUGUUUCAUGAGCAACUCAUUCCUA | 0.68
CUACAUACUAAAUCUCUCUCCUUUUUUAAUUUUAAUAUUUGUUAUCAUUUAUUUAUUGGUGCUACUGUUUAUCCGUAAUAAUUGUGGGGGAAAAAGAUAUUAACAUCACG | 0.811
CUUUUUGCUCAGUUUUUAUAUGCCAGAUACAGAGAAUUUGUAGCGGUUAUUUUUGUAUGAUCUAGUAACUUGCAAACAGACCAAAUGGAUGAGAGGCGGGGACCGUGCAG | 1.38
AAAACAAAUGAUUAGUUAAAAAAAGAAAAUAUACAUUUGUUGGUAACUAAUGUUAUUUUUUAAAACCUGGACCUUUUCUGGAAGGGCAGCAUAUAAAAACAUCAGUCCCG | 0.546
GAAUAAAAGGGAAUGUUUUGGCACCUGAUAUAAUCUGCCAGGCUAUGUGACAGUAGGAAGGAAUGGUUUCCCCUAACAAGCCCAAUGCACUGGUCUGACUUUAUAAAUUA | 2.3
UUGGGCAUUUUUAAGAGGUCUGAAUUUGUAUUUUUCUUCAUUUUUGAAACUUUACAUUUGUUGACUUUUUUUCAUUCUCAUUUAAAAUAUAUUGUGCUAUGAUAACCAAC | 0.578
GAAAAAAAAAUCUCACAAGUUCUUUUGGAACUUGUUUCAAGCCAAAAACUCUCAAGAAAGCAAAUUGCACCUCAGCUGGAUUGAUUUCCAAAUGCUAGCAUGUACUGUAU | 22.2
UCCAAGUCCAGAACCAUCUCUGUUAUAGAGUGUGCCAAAGCCUGAGCUAAGCAGUGUAUUUUAAUCGAAGAAGAAACCAAAAUCUGUUCUAAGAACUGGGGUUCUAUACC | 0.387
GCAUGAGCCUGUGUUCCCAGCUGCUUAGGAGGCUGAAGCAGGAGGAUUGAUUGAGCCUGCGAGGCCAAGGCUGCAGCAGGCUGUGAUUGCACCACUGCACUUCAGCUUGG | 4.73

Study 3 — technique: RNA Bind-n-Seq; molecule type: RNA; sample: in vitro; concentration: not given; relative to: input RNA pool; direction: higher = stronger binding
Target: RING finger protein unkempt homolog, zinc fingers 1-6, GST-SBP tag (UNK, Homo sapiens, UniProt Q9C0B0, residues 30-357)
Sequence of UniProt Q9C0B0 (30-357, looked up): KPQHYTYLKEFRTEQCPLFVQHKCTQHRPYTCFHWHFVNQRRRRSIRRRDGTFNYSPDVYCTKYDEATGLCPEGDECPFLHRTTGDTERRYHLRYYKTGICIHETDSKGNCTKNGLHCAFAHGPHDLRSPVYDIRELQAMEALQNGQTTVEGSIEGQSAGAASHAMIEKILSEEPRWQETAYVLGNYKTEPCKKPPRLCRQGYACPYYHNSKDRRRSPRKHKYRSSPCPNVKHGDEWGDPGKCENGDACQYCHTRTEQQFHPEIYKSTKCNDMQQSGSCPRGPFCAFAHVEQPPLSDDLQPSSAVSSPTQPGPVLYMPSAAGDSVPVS
Notes: RNA with constant flanks, human and mouse sites, ends assumed
All sequences stand within: GGGAGUUCUACAGUCCGACGAUC … CAACAGAGGAUUGAGCAUCA
Strand | bound/input enrichment [ratio]
GCUUUGACUUCAAAAAAAGCAAGAUUUGAUCCAUAUGGAAAGAAUAAGUUCUCCACUUGUAGAAUUUGUAAAAGUUCUGUGCACCAACCAGGUUCUCAUUACUGCCAGGGCUGUGCCUAC | 0.33
GCAAUAAAAAUAAUCGAUAAGUCUCAGCUGGAUGCAGUGAACCUUGAGAAAAUCUACCGAGAAGUACAAAUAAUGAAAAUGUUAGACCACCCUCACAUAAUCAAACUUUAUCAGGUAAUG | 0.394
UUAUUUUCUAAAAAUUGUUACAUGCAAAUUUAAACCAAGAUUUAUCAGUAAAAGAAAAAAAUAGAAUCCUUAAUAAUGUAAAUGUUGUUAUAUAUGCUACCCUGGUGAAAAUAUUUUUAU | 3.22
UUUUAUGAACGACUGGCUGGCCAUGGUCCAAAACUAGGACCUGUCACUAGAAAGCAUCCUUUAGUUACCAGGUAUUUUACUUUCCCAUUUGAAGAGAUAGACUUCUCCAUGGAAGAAUCU | 3.2
CGACUCGGGGACGGCCUGGGUGCUGCCCUGGGCCCGGGGAACAGAACACACAUCUGGCUUUUUGUUAGAGGUCUUCAUGGAAAGAGUGGUACAUGGUGGGAUGAGCAUCUUUCUGAAGAA | 0.268
AUUAAGCAGGCUCUUCCCCAGUACGUGUUUUCUGAGCCAUGCAUACCCUCUCCUUGGCCUUAGGUUUACUCUCAAGUGUUCCCUCUAUUCUCAUGCGUCCCACUUUGGGUCUGUACAAUC | 0.298
CUGAAAGUUCUGGCCACUGCAUUUGACACGACAUUGGGAGGUAGAAAAUUUGAUGAAGUGUUAGUAAAUCACUUCUGUGAAGAAUUUGGGAAGAAAUACAAGCUAGACAUUAAGUCCAAA | 0.817
UGAUUUUUACUGAUAAAUUCACAGGAGGAACUUUGUAGUCAAAAGUUCUGUGGCUACUGUUUUGCUUUGUUCUUUUUUGGCUUUUUUCUGUUUUGUUUUGUUUUUUGUUGUUUUUUUUUU | 0.798
GCAAAAGUAGAACAGCUUGCAGUGAGAUUUAAGACAAAGGAAAUGACUGAGAGUUUUAAGAAAAAAUUUGAAGAAUGUCAACAAAAUAUAAUAAAACUCCAGAAUGGACAUACAUCCCUU | 0.445
AGCAUUUGAUUAUUUUUUUUAAAUACACUCUCUUAUUUUUCUACUUGUUUUUUUGUUAAUCAUAGCAGGAUAUGACAACUCUUAUUUGAAUUGAUUUUUUCAUCUAAUGUAAUAAUGGAA | 2.66
CCUGUUGAGGAGGAUGUGCUAUGGGAGAGGCUGACUAGCACCAAGAAGGCGGUGAAAGCUGCUCUAGCCAAUGACUUUGACACACCGAGGGCAGUGAACACCAUCCUGGACCUUGUGCAC | 0.126

Study 4 — target: CCND1, cyclin fold, Cln2 fusion (human); technique: yeast growth competition, sequencing; sample: yeast; notes: weak parent motif; relative to: not given; direction: higher = stronger binding
Parent: DBF4 docking peptide (human); DDIVSKLVFDFVE
Change | normalised enrichment score
S5A | 0.744
D10A | 0.675
K6A | 0.729
I3A | 0.922
E13A | 1.1
L7A | 0.736
F9A | 0.73

Excerpt of the above (study 3):
Strand | bound/input enrichment [ratio]
UGAUUUUUACUGAUAAAUUCACAGGAGGAACUUUGUAGUCAAAAGUUCUGUGGCUACUGUUUUGCUUUGUUCUUUUUUGGCUUUUUUCUGUUUUGUUUUGUUUUUUGUUGUUUUUUUUUU | 0.798
CCUGUUGAGGAGGAUGUGCUAUGGGAGAGGCUGACUAGCACCAAGAAGGCGGUGAAAGCUGCUCUAGCCAAUGACUUUGACACACCGAGGGCAGUGAACACCAUCCUGGACCUUGUGCAC | 0.126
CGACUCGGGGACGGCCUGGGUGCUGCCCUGGGCCCGGGGAACAGAACACACAUCUGGCUUUUUGUUAGAGGUCUUCAUGGAAAGAGUGGUACAUGGUGGGAUGAGCAUCUUUCUGAAGAA | 0.268
AUUAAGCAGGCUCUUCCCCAGUACGUGUUUUCUGAGCCAUGCAUACCCUCUCCUUGGCCUUAGGUUUACUCUCAAGUGUUCCCUCUAUUCUCAUGCGUCCCACUUUGGGUCUGUACAAUC | 0.298
GCUUUGACUUCAAAAAAAGCAAGAUUUGAUCCAUAUGGAAAGAAUAAGUUCUCCACUUGUAGAAUUUGUAAAAGUUCUGUGCACCAACCAGGUUCUCAUUACUGCCAGGGCUGUGCCUAC | 0.33
UUUUAUGAACGACUGGCUGGCCAUGGUCCAAAACUAGGACCUGUCACUAGAAAGCAUCCUUUAGUUACCAGGUAUUUUACUUUCCCAUUUGAAGAGAUAGACUUCUCCAUGGAAGAAUCU | 3.2
CUGAAAGUUCUGGCCACUGCAUUUGACACGACAUUGGGAGGUAGAAAAUUUGAUGAAGUGUUAGUAAAUCACUUCUGUGAAGAAUUUGGGAAGAAAUACAAGCUAGACAUUAAGUCCAAA | 0.817
